Experimental data collected from several papers.
Parts stem from different laboratories: compare values within a part only. Positions count from the first letter of the parent shown.

Series 1 — target: CCNB3, cyclin fold, Cln2 fusion (human); technique: yeast growth competition, sequencing; medium: yeast; setting: strong parent motif; baseline: not given; direction: higher = stronger binding
Starting sequence: RBL2 docking peptide (human); STTRRRLFVENDS; partner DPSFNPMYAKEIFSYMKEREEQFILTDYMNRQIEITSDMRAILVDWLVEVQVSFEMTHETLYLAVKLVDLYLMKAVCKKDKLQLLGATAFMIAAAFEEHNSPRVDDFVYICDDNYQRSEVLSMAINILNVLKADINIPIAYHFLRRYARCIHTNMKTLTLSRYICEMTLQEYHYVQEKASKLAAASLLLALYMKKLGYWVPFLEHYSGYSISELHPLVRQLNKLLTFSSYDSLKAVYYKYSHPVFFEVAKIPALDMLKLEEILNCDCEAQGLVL
Substitution | normalised enrichment score
STTRRRLFVESDS [N11S] | 0.952
STTRRRWFVENDS [L7W] | 0.0391
STTRRRLFVKNDS [E10K] | 0.158
STTWRRLFVENDS [R4W] | 0.582
STTRRLLFVENDS [R6L] | 0.699
STTRRRLAVENDS [F8A] | -0.107
STTRRALFVENDS [R6A] | 0.45
MTTRRRLFVENDS [S1M] | 0.663

Series 2 — technique: RNAcompete; form: RNA; medium: in vitro; concentration: 20 nM; setting: 7-mer, probes averaged, single round; baseline: mean of 7-mers; direction: higher = stronger binding
Target: PABPC1L2, full length, GST fusion (mouse, UniProt A0ABA7IW68)
Construct (chain): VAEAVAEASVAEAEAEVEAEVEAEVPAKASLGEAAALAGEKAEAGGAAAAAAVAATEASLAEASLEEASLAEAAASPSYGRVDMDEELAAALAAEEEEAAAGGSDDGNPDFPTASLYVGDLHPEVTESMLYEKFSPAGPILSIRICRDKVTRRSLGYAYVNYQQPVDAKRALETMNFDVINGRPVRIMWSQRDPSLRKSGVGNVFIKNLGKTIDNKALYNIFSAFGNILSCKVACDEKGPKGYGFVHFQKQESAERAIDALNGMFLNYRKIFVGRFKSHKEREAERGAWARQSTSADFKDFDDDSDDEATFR
Sequence | 7-mer Z-score
UGGAGUA | -0.0337
GUUCGCA | -0.427
AGCUCAC | -0.318
UCGGGAU | -0.0283
GCCUACC | -0.273
AAUUUAU | 0.503
UUUUCGG | -0.144
UCCGAUG | -0.219

Series 3 — observed: ligand displacement; concentration: 10 µM
Target: 5-hydroxytryptamine receptor 7 (HTR7, Homo sapiens, UniProt P34969)
Chain of UniProt P34969 (whole entry, looked up): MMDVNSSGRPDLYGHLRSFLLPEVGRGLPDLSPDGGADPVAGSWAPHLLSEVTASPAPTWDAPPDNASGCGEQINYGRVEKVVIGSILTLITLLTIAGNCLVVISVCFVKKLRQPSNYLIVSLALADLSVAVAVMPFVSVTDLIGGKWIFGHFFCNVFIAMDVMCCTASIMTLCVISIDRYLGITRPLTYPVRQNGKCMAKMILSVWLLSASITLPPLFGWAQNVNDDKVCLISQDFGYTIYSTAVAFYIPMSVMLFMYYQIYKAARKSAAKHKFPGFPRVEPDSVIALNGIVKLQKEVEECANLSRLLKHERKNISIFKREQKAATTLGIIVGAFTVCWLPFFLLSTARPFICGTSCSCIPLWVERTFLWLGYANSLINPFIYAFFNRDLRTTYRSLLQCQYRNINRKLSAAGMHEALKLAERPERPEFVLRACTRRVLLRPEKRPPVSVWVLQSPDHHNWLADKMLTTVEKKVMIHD
SMILES | inhibition
Cc1cc(Nc2nccc(C)n2)cc(-c2cnc([C@@]3(O)CC[C@H](C(=O)O)C(C)(C)C3)s2)c1 | -15.2%
CN(C)CC#Cc1ccc(OCCCc2sc(N3CCc4cccc(C(=O)Nc5nc6ccccc6s5)c4C3)nc2C(=O)O)c(F)c1 | -18.9%
CC1=C(C#N)C(c2ccc3[nH]nc(C)c3c2)C(C#N)=C(C)N1 | -0.97%
NC(=O)c1ccc2nc(-c3ccc(C4(N)CCC4)cc3)c(-c3ccccc3)n2n1 | 12.9%
CCC(=NO)C(C)=Cc1ccc(F)c(C)c1 | -0.42%
Cc1ccc(-c2cnc([C@@]3(O)CC[C@H](C(=O)O)C(C)(C)C3)s2)cc1Nc1cccc(C(F)(F)F)n1 | -16.4%
O=C(Nc1ccc(Oc2ccc(F)cc2)cc1)N1CCc2ncccc2[C@H]1c1ccc(F)cc1 | -11.8%
CCC(F)(F)c1cc(N2CCC(S(C)(=O)=O)CC2)nc2sc(C(N)=O)c(N)c12 | 13.7%
N#CC1(c2ccccn2)CCN(Cc2cc(C(=O)N3CCCC3)c(=O)n3ccccc23)CC1 | -22.8%
C[C@@H]1CN(c2cc(-c3n[nH]c4ccc(OC5(C)CC5)cc34)ncn2)C[C@H](C)O1 | -12.9%
C[C@H](c1ccnc(Nc2nc3ccc(-c4cc(N(C)C)ncn4)cc3[nH]2)c1)N1CCN(C(=O)CC(F)(F)F)CC1 | 16.6%
NS(=O)(=O)c1cc(NC(=O)Cc2ccccc2)ccc1Oc1cccc(Cl)c1 | 35.2%
Cc1ccccc1Oc1cc(-n2c(=O)cc(C(F)(F)F)[nH]c2=O)c2ccccc2c1Cl | 13.1%
CN1CCN(c2cnc3c(C4CCN(C(=O)c5ccc(OC(F)(F)F)cc5N)CC4)ncnc3c2)CC1 | -9.57%

Series 4 — observed: enzyme activity; action: inhibitor; concentration: 0.5 µM; baseline: control
Target: Cyclin-dependent kinase 9, with cyclin T1 (CDK9, Homo sapiens, UniProt P50750)
Chain of UniProt P50750 (whole entry, looked up): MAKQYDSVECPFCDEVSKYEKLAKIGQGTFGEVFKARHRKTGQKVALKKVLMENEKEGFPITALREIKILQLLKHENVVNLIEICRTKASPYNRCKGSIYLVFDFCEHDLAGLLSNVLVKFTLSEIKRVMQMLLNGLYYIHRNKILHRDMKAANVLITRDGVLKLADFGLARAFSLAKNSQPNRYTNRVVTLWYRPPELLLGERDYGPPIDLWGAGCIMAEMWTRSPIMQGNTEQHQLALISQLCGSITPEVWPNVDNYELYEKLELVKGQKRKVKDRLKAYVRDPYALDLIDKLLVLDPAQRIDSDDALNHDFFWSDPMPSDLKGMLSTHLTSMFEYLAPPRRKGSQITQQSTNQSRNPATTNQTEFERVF
Compound | remaining activity
OCC(O)CCON=C1C(c2c(O)[nH]c3ccccc23)=Nc2ccccc21 (centres unmarked) | 52.5%
Cn1c2ccccc2c2c3c(c4c5ccccc5n(CCC#N)c4c21)CNC3=O | 46.8%
N#CC(C#N)=C(N)/C(C#N)=C/c1ccc(O)cc1 | 83.9%
O=c1c2ccccc2[nH]c(=S)n1CCN1CCC(=C(c2ccc(F)cc2)c2ccc(F)cc2)CC1 | 102%
CN(C)c1ccc(C=C2C(=O)Nc3ccccc32)cc1 | 94.5%
O=C(O)c1ccc2c3c1cccc3c(=O)n1c3ccccc3nc21 | 78.3%
COc1ccc(C(=O)Nc2sc3c(c2C(N)=O)CCCC3)cc1OC | 102%
CNC(=O)c1cc(Oc2ccc(NC(=O)Nc3ccc(Cl)c(C(F)(F)F)c3)cc2)ccn1 | 98.3%
O=S(=O)(c1cccc2cnccc12)N1CCCNCC1 | 80.7%
COc1ccc(OC)c2c(=S)c3ccccc3[nH]c12 | 98.8%
COc1cc2ncnc(Nc3ccc(Oc4ccccc4)cc3)c2cc1OC | 86.7%

For quick reference, copied from above (series 2):
Sequence | 7-mer Z-score
GCCUACC | -0.273
AAUUUAU | 0.503
UUUUCGG | -0.144
UCCGAUG | -0.219
